Published values collected from several papers.
Parts stem from different laboratories: compare values within a part only.
UniProt P50613, sequence (whole entry, looked up): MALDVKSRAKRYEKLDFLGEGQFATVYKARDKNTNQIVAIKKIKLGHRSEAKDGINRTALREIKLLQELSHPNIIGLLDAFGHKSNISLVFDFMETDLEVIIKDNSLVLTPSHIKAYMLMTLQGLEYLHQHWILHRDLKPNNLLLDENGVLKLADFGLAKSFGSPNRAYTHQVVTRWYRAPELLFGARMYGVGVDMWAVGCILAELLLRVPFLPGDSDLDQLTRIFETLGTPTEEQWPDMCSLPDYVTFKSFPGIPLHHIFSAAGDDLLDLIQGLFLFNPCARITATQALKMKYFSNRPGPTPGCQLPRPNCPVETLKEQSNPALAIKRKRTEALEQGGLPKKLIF
UniProt P20794, sequence (whole entry, looked up): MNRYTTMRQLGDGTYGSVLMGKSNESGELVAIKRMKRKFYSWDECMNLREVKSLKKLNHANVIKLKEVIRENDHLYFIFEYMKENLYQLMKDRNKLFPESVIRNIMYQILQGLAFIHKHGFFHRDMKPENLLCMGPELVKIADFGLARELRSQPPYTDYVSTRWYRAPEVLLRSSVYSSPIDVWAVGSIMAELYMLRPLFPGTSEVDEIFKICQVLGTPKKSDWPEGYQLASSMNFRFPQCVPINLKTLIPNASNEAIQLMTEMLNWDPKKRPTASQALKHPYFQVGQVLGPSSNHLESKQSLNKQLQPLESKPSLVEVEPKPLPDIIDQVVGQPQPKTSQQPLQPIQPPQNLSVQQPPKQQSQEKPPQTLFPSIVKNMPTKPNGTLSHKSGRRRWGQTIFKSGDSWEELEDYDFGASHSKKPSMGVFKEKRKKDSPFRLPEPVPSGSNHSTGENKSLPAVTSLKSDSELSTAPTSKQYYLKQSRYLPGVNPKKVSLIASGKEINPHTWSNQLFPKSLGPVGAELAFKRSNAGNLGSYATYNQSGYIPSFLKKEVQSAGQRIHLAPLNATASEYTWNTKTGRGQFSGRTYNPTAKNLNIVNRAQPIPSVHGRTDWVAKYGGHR
UniProt Q99640, sequence (whole entry, looked up): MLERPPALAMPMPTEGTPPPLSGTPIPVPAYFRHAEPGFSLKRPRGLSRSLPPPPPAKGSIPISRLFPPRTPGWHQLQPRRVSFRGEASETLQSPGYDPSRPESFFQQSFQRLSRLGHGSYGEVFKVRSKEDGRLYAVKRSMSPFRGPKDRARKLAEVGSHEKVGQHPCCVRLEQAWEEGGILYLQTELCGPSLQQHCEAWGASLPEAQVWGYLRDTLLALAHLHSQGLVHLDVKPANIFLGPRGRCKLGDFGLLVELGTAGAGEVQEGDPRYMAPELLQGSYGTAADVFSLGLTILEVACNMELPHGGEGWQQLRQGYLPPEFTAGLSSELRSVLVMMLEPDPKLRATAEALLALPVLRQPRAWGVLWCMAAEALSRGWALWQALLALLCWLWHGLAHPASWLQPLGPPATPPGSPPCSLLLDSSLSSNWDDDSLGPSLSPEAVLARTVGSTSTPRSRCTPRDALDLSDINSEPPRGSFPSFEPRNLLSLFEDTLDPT
UniProt Q14289, sequence (whole entry, looked up): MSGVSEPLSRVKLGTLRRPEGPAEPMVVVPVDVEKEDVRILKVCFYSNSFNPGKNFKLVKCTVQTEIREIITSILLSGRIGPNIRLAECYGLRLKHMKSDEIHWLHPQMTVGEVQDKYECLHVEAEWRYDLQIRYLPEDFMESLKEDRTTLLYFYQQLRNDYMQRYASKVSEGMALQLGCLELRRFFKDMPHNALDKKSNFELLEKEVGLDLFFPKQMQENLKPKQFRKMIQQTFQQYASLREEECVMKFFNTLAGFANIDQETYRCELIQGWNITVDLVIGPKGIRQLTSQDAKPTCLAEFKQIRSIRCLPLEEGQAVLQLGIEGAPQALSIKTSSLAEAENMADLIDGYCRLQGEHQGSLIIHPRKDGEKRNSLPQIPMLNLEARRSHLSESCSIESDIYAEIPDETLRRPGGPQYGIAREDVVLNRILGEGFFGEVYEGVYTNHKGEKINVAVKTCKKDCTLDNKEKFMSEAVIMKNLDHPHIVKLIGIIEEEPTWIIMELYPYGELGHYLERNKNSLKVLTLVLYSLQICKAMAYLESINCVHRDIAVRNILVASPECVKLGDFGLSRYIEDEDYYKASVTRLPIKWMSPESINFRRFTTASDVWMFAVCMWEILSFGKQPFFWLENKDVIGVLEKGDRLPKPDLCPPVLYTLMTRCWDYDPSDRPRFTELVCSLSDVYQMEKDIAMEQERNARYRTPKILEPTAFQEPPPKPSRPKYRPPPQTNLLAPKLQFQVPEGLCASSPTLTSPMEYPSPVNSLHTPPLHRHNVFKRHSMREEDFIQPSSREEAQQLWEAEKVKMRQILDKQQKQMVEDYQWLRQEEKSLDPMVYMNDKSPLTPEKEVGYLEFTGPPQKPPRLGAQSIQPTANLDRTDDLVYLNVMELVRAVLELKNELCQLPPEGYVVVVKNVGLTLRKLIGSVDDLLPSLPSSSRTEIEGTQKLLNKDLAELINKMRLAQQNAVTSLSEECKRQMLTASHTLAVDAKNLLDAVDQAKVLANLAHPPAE
UniProt P53667, sequence (whole entry, looked up): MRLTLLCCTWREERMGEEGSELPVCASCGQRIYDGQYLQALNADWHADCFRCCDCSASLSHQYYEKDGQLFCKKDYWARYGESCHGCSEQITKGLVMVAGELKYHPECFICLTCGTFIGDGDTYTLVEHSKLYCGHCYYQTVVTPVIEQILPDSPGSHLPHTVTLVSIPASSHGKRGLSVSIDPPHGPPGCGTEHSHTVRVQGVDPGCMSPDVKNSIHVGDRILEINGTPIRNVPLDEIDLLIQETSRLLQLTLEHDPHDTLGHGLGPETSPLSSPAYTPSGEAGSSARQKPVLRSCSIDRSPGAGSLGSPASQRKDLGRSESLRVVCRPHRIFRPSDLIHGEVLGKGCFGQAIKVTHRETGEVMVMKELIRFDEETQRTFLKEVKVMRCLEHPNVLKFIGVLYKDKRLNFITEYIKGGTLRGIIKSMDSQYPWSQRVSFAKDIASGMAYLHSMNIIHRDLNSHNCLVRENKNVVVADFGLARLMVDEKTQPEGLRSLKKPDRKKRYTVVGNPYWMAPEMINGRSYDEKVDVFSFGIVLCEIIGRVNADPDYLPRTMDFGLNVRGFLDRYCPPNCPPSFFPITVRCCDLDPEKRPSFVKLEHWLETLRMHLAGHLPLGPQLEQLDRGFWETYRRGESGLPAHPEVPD
UniProt P27361, sequence (whole entry, looked up): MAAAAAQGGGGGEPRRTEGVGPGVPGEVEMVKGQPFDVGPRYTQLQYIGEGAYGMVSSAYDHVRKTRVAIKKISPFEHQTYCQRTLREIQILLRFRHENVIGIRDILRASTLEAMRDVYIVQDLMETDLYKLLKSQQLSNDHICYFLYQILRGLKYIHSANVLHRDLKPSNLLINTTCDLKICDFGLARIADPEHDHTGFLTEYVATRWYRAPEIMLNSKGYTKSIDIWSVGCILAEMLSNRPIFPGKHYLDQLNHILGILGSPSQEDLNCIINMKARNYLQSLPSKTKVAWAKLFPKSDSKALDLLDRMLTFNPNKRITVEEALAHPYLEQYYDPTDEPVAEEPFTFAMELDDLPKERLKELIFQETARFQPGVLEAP
UniProt Q8TDR2, sequence (whole entry, looked up): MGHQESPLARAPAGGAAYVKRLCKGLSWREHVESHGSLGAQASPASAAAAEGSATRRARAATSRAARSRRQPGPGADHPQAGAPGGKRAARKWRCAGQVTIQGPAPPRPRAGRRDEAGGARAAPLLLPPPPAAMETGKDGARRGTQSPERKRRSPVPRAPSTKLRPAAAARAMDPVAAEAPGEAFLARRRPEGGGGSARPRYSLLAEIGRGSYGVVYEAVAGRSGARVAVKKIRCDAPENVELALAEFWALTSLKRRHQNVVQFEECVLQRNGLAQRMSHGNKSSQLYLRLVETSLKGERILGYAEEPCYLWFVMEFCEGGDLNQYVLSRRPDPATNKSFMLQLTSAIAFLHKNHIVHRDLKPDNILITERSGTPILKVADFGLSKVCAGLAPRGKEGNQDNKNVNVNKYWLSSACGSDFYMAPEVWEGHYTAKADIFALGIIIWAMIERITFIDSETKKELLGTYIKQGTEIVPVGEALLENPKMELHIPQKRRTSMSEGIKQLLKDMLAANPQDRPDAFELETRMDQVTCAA
UniProt P68400, sequence (whole entry, looked up): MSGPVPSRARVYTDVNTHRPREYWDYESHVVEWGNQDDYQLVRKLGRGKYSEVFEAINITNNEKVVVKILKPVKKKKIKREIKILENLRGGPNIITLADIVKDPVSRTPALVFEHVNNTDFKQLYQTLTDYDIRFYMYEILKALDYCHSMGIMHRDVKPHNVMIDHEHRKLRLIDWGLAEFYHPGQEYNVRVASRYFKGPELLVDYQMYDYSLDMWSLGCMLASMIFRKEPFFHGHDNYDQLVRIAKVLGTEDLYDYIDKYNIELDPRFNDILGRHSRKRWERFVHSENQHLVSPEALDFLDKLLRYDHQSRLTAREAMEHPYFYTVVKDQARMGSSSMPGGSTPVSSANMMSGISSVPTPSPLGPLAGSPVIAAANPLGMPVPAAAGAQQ

Block 1 — host: human; matrix: microsomes or S9; concentration: 2 µM; time: 0.5 h
`Cc1cc(C)c(N2CC(=O)N(c3c(C)cc(C)cc3C)CC2=O)c(C)c1` has a remaining compound of 20.1%.
`COC(=O)c1sccc1NC(=O)Nc1c(C)nn(Cc2ccccc2C)c1C` has a remaining compound of 2.19%.
`c1ccc2c(c1)nc(-c1ccsc1)n2Cc1ccsc1` has a remaining compound of 5.88%.

Block 2 — technique: universal PBM; molecule type: double-stranded DNA, one strand shown; matrix: in vitro; concentration: not given; direction: higher = stronger binding
Target: Sal-like protein 4, full length isoform B (SALL4, Homo sapiens, UniProt Q9UJQ4-2, residues 1-616)
Setting: 8-mer, flanks averaged, mean of replicates
With `ACCGACGC` the E-score was -0.147.
For `AACGCCCG`, the E-score was -0.105.
`AGTAATAA` gave an E-score of 0.397.
`ACGCAACA` gave an E-score of 0.0996.
For `GGTCCTAA`, the E-score was 0.0241.
The E-score of `GAAGCTGA` is reported as 0.0431.
The E-score of `GCCGTCCA` is reported as -0.159.
`CGCCCTGA` has an E-score of -0.174.

Block 3 — technique: competition with immobilised ligand; concentration: 1 µM
SMILES: CC1=C(C#N)C(c2ccc3c(c2)c(NC(=O)c2ccccc2C)nn3C)C(C#N)=C(C)N1
The remaining binding was 63% (Casein kinase II subunit alpha (CSNK2A1, Homo sapiens, UniProt P68400); cell-free assay).
For Mitogen-activated protein kinase 3 (MAPK3, Homo sapiens, UniProt P27361); cell-free assay: remaining binding read 94%.
The remaining binding was 74% (Mitotic checkpoint serine/threonine-protein kinase BUB1 (BUB1, Homo sapiens, UniProt O43683); cell-free assay).
Serine/threonine-protein kinase LATS1 (LATS1, Homo sapiens, UniProt O95835); cell-free assay — remaining binding: 85%.
Vascular endothelial growth factor receptor 3 (FLT4, Homo sapiens, UniProt P35916); cell-free assay — remaining binding: 100%.
Cyclin-dependent kinase 7 (CDK7, Homo sapiens, UniProt P50613); cell-free assay — remaining binding: 58%.
It gave 83% for remaining binding (Protein-tyrosine kinase 2-beta (PTK2B, Homo sapiens, UniProt Q14289); cell-free assay).
It gave 94% for remaining binding (LIM domain kinase 1 (LIMK1, Homo sapiens, UniProt P53667); cell-free assay).
For Serine/threonine-protein kinase 35 (STK35, Homo sapiens, UniProt Q8TDR2); cell-free assay: remaining binding read 86%.
Serine/threonine-protein kinase MAK (MAK, Homo sapiens, UniProt P20794); binding — remaining binding: 100%.
For Mitogen-activated protein kinase 4 (MAPK4, Homo sapiens, UniProt P31152); cell-free assay: remaining binding read 100%.
It gave 99% for remaining binding (Membrane-associated tyrosine- and threonine-specific cdc2-inhibitory kinase (PKMYT1, Homo sapiens, UniProt Q99640); cell-free assay).
The remaining binding was 100% (SRSF protein kinase 3 (SRPK3, Homo sapiens, UniProt Q9UPE1); cell-free assay).

Block 4 — technique: protein-binding microarray; molecule type: double-stranded DNA, one strand shown; matrix: in vitro; concentration: 0.8 µM; setting: whole 60-bp probe, no competitor; direction: higher = stronger binding
Target: Centromere-binding protein 1, full length, N-terminal tag (CBF1, Saccharomyces cerevisiae, UniProt P17106, residues 1-351)
UniProt P17106, sequence (whole entry, looked up): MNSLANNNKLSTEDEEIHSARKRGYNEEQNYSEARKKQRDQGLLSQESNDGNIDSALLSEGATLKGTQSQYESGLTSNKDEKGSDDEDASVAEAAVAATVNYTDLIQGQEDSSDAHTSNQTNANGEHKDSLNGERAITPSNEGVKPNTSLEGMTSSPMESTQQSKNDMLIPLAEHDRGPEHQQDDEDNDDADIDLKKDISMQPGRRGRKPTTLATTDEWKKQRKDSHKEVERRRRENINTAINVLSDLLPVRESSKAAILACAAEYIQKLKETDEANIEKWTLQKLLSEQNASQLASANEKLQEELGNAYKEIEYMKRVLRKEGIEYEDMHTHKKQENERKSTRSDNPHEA
`CTAGCCGAAAGAAGTCACGGCGATGAACAAAATTTCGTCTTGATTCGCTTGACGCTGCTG` has a fluorescence intensity of 689 a.u.
With `CTACTTGTTTTACCTCACCTGGTACTACTAGTATTCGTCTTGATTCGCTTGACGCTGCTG` the fluorescence intensity was 537 a.u.
`CCTAACTACTATATCCACGTGATATAGCTTCGTACAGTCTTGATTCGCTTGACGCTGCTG` has a fluorescence intensity of 10700 a.u.
`CTAGAGTAGTAGGTTCACGTTATGTCTCTCTTTTTCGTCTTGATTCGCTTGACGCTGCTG` has a fluorescence intensity of 545 a.u.
`CTATCCTGTATTTCACACGAGAGCAAAACACATTTCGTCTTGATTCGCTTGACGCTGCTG` gave a fluorescence intensity of 662 a.u.
With `GAAATCATCATTGGTGGTGGTATGGCTTTCACCTAGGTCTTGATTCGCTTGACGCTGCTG` the fluorescence intensity was 490 a.u.
For `TGTACGAAGCTATAGCACGATGGTATAGTAGTTAGGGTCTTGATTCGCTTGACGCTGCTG`, the fluorescence intensity was 557 a.u.
For `CCTAACTACTATATAACCGTGATATAGCTTCGTACAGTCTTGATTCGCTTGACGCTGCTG`, the fluorescence intensity was 544 a.u.

Some of these lines once more (block 1):
`COC(=O)c1sccc1NC(=O)Nc1c(C)nn(Cc2ccccc2C)c1C` has a remaining compound of 2.19%.
`Cc1cc(C)c(N2CC(=O)N(c3c(C)cc(C)cc3C)CC2=O)c(C)c1` has a remaining compound of 20.1%.
